Published values collected from several papers.
A part holds a random share of what one study measured.

Sample 1 — method: protein binding microarray; form: double-stranded DNA, one strand shown; sample: in vitro; tested at: not given; baseline: not given; reading: higher = stronger binding; quantity: E-score
Target: Histone acetyltransferase KAT6A, winged helix 1, GST fusion (KAT6A, Homo sapiens, UniProt Q92794, residues 1-85)
Setting: 8-mer, flanks averaged, mean of 2 arrays, mostly near background
Construct (chain): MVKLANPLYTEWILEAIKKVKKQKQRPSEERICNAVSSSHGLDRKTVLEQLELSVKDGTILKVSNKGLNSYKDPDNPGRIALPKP
GGAAAGAC: 0.00074
AGTGCGGC: 0.36
CCGGTAGC: 0.258
CTACATAA: -0.147

Sample 2 — target: Sox, HMG box (Pigoraptor chileana); method: Spec-seq; form: double-stranded DNA, one strand shown; sample: in vitro; tested at: not given; setting: whole probe, mean of replicates; baseline: not given; reading: lower = stronger binding; quantity: relative binding energy
Construct (chain): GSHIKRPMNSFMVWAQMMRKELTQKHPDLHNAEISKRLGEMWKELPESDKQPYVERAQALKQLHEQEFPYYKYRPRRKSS
GAGTCGTCTCGTCAGCACACCAGTTCCGTAGAGCACTCAGGTC: 0.0331 ln ratio
GAGTCGTCTCGTCAGCACCTTCGTTCCGTAGAGCACTCAGGTC: 0.664 ln ratio
GAGTCGTCTCGTCAGCACCATATCACCGTAGAGCACTCAGGTC: 0.18 ln ratio

Single results of other studies
PABPC1L2 full length, GST fusion: PABPC1L2, full length, GST fusion (mouse, UniProt A0ABA7IW68)
UAGGCGC  7-mer Z-score (PABPC1L2 full length, GST fusion; RNAcompete; RNA, in vitro; 20 nM, 7-mer, probes averaged, single round; baseline: mean of 7-mers, higher = stronger binding): -0.182
PhoQ, residues 284 288 289 292 302 303 ASVMEA  fold induction (PhoP, residues 12 14 15 18 19 GQAIL (Escherichia coli, UniProt P23836); Sort-seq, item: YFP reporter; E. coli; PhoQ-PhoP variant library, added: 10 µM Mg2+; baseline: high Mg2+ state, higher = stronger signaling): 8.66
AACGUAU  7-mer Z-score (PABPC1L2 full length, GST fusion; RNAcompete; RNA, in vitro; 20 nM, 7-mer, probes averaged, single round; baseline: mean of 7-mers, higher = stronger binding): 0.186

Excerpt of the above (sample 2):
GAGTCGTCTCGTCAGCACCTTCGTTCCGTAGAGCACTCAGGTC: 0.664 ln ratio
